# Experimental data of several laboratories.
# Each numbered part is a random draw from the data of one study; scales do not carry over between parts. Substitutions count along the parent as printed.

# Set 1
# Target: Interferon regulatory factor 7, full length, phosphomimetic (IRF7, Homo sapiens, UniProt Q92985, residues 1-503, S101K/S471D/S472D/S475D/S476D/S477D/S483D/S484D/S487D)
# UniProt Q92985, sequence (whole entry, unmodified, looked up): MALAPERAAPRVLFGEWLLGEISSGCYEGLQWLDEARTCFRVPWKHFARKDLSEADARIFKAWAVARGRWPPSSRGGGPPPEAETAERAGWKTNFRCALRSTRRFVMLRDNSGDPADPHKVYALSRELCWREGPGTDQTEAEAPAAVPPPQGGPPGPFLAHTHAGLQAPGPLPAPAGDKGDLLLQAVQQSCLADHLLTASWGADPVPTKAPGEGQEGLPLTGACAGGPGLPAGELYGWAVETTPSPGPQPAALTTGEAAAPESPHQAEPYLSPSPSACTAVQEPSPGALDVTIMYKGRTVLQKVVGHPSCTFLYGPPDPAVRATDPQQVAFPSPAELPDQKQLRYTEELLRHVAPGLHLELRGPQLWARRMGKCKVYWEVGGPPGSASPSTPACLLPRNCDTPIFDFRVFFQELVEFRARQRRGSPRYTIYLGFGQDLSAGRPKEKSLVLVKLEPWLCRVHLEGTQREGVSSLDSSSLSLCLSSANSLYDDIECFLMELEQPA
# Method: protein-binding microarray
# Molecule type: double-stranded DNA, one strand shown
# Medium: in vitro
# Concentration: 250 nM
# Notes: 60-bp whole probe
# Added: salmon DNA 0.4 mg/ml
# Reference: random background probes
# Direction: higher = stronger binding
# Constant ends, left off below: GCCTAGCAC … GTCTTGATTCGCTTGACGCTGCTG
Oligonucleotide,log fluorescence
TCAATTGTGGGTCTTGCACTGTGCTAG,-0.623 z-score
TGCTATACCACTCTTGCTTTGTGCTAG,0.443 z-score
TTAGGAGTGGGGACTGGGTTAGTGCTA,-0.415 z-score
TCAAGCAAAAATGATTGACTGTGCTAG,0.0644 z-score
TTAGATATCAGACTGGAGTAGTGCTAG,-0.173 z-score
TTAGGCTTCGGTTTCGGTTAGTGCTAG,8.81 z-score
GACGATATCACTTTCGAGACGTGCTAG,0.826 z-score
TTAGTTCTCGGTCTCGGTTAGTGCTAG,2.72 z-score
TGGCCTGTGCTATTTATAAGGGTGCTA,-0.469 z-score
GACGGTCTCGGTCTAGGGACGTGCTAG,0.924 z-score
GACGATTTTAGTTTCGAGACGTGCTAG,5.55 z-score
GCCGGTATCGGGACTGGGGACGTGCTA,-0.0159 z-score
TTAGGTATCGACTATCGGTTGGTGCTA,0.443 z-score
GACGGTATCGGTACCGGGACGTGCTAG,0.481 z-score
TCACTCCTCTTTTTTTGACTGTGCTAG,0.719 z-score
GCCGGTATCGACTATCGGGACGTGCTA,-0.0143 z-score
GACGGTCTCGGTATCGGGAAGTGCTAG,2.45 z-score
ATCAGTTTAATATCTAAGATTGTGCTA,0.319 z-score
TCATTTTGCTTTCTTTAACTGTGCTAG,1.97 z-score
TGTTTTAATTTTCTCTTTGGGTGCTAG,4.36 z-score

# Set 2
# Target: Histone acetyltransferase KAT6A, winged helix 1, GST fusion (KAT6A, Homo sapiens, UniProt Q92794, residues 1-85)
# Method: protein binding microarray
# Molecule type: double-stranded DNA, one strand shown
# Medium: in vitro
# Concentration: not given
# Notes: 8-mer, flanks averaged, mean of 2 arrays, mostly near background
# Reference: not given
# Direction: higher = stronger binding
# Residues (chain): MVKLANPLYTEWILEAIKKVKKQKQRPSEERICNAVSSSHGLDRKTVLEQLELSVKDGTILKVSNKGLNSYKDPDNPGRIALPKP
Oligonucleotide,E-score
ATCGAGGA,-0.145
CCGCTACC,0.302
ATCTTGGA,-0.296
CCCAGTCG,-0.0161
AAGGCACG,0.0641
CGAGTTAC,0.04
ACTGGACA,-0.181
CCGTTATC,-0.00924
ATTCGGTA,0.0268
GACTACGA,-0.18
ATCTGAGA,-0.266
AATCAATA,-0.137
TCTCCACA,-0.28
ACTTACAG,-0.213
ATCCACGG,0.284
TATATTCA,-0.0553
ACTGGCCT,-0.0792
ACCAAGAC,0.0199
CGCATCGA,0.233
CTCGCGGA,0.184
GCGATGTA,0.121
GATTCAGA,-0.22
CAAAGCAC,-0.0675
CTAAAGTA,-0.11
CATTGCTC,-0.159

# Set 3
# Target: ABI1, truncated, D143A, DHFR fusion (Arabidopsis thaliana)
# Method: DHFR PCA, deep sequencing
# Medium: yeast
# Notes: methotrexate growth selection, single substitutions
# Added: (+)-ABA 0.11 µM
# Reference: wild-type fitted maximum
# Direction: higher = stronger binding
# Starting sequence: PYL1, truncated, DHFR fusion (Arabidopsis thaliana); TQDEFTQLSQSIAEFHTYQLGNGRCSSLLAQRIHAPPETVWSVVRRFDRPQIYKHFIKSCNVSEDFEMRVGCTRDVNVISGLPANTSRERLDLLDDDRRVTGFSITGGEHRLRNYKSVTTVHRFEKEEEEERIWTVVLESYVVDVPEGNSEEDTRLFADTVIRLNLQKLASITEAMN; partner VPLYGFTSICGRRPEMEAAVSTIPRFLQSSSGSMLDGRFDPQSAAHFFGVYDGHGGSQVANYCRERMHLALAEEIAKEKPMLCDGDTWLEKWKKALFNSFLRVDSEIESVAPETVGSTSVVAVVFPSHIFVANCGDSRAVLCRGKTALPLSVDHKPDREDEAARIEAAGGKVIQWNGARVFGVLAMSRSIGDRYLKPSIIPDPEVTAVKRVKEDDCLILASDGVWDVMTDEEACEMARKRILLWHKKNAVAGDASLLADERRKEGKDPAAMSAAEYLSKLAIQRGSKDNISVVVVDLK
Variant,relative binding score [%]
G23N,31.7
P146Q,17.1
V161F,21.3
E152T,11.9
W41N,-18.7
G71W,-1.44
V62I,23.1
Q31G,-0.809
V40C,-2.36
E128W,15.1
C25N,-0.975
I52E,26.7
G107V,-0.191
F157L,9.26
V43C,0.81
V62K,-2.3
R132D,74

# Set 4
# Target: Sal-like protein 4, full length isoform B (SALL4, Homo sapiens, UniProt Q9UJQ4-2, residues 1-616)
# Method: universal PBM
# Molecule type: double-stranded DNA, one strand shown
# Medium: in vitro
# Concentration: not given
# Notes: 8-mer, flanks averaged, mean of replicates
# Direction: higher = stronger binding
Oligonucleotide,E-score
GAAACGAA,0.0777
ACTTTTGG,0.058
TACCCGAA,0.138
AAGAATTC,-0.107
GCGACTGA,-0.235
ACAAAGAT,0.252
AGCGAAAA,0.061
CTAGCAAG,-0.218
ATTGCACA,0.14
ATTCGTGC,0.0638
CTTTCATC,-0.0495
GCTGACTA,-0.139
GAGGTCTA,-0.102
ACCTCAGT,-0.00981
ACTAATAG,0.166
TGACAACA,0.145
ACGCACAG,-0.107
AACATCAC,0.14
CGGCTTCA,-0.0341
TGACTCCA,-0.143
AGTTACAT,0.208
AGGAAAGG,0.00259
CTAGATGA,0.0721
AGACCCAA,-0.0653
GGTGACAA,0.0076

# Set 5
# Target: CCNB1, cyclin fold, Cln2 fusion (human)
# Method: yeast growth competition, sequencing
# Medium: yeast
# Notes: weak parent motif
# Reference: not given
# Direction: higher = stronger binding
# Starting sequence: CDKN1A docking peptide (human); SKACRRLFGPVDS
Variant,normalised enrichment score
L7N,0.143
G9D,0.237
F8L,-0.401
L7T,0.299
P10L,0.629
R6L,0.0673
R6P,-0.263
D12V,0.144
R5A L7A,0.149
L7D,0.171
V11F,0.0509
V11Q,0.0546
R6D,0.166
F8H,0.249
L7Q,0.361
A3K,0.65
V11P,-0.113
D12Q,-0.15
R5T,-0.0866
G9C,0.189
P10W,0.352
P10I,0.188
V11R,0.655
D12R,-0.0727
R6Q,0.515

# Set 6
# Target: RNA binding protein fox-1 homolog 2, RRM domain, GST-SBP tag (RBFOX2, Homo sapiens, UniProt O43251-10, residues 100-194)
# Method: RNA Bind-n-Seq
# Molecule type: RNA
# Medium: in vitro
# Concentration: 365 nM
# Notes: natural RNA segment, single round, ends assumed
# Reference: no-protein control
# Direction: higher = stronger binding
# Constant ends, left off below: GGGAGUUCUACAGUCCGACGAUC … UGGAAUUCUCGGGUGCCAA
# Construct (chain): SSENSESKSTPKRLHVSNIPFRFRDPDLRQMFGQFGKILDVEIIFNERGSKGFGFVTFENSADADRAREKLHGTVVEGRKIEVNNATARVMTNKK
Oligonucleotide,RBNS enrichment (R)
CUAUAAUGUACAGUUAUUACAGGGCUUCUGAAGAAGGGGGGGCGGGGAGAAGCUUCUCUGAGGGGCUCGCUCUGCUUUUCCUUCACGGUUUUAUUUUUGAUUGUUUUUUC,0.378
ACUGAGGGCAGGAUGCUCUCCCACCCGGACCCCUCCAGCCAAGCAGCCCUUCAAGUUCUUUUAUUUCUGGGUAACAGAAGUAGACAGACAGGUUACUUGGUGUAUCUUCU,0.183
CCCAGCCUCUGUGACAGUGACCGUCUCCCUUUGUACAUACUUGCACACAGGUUCCCCAUGUACAUACAUGCACAUACUCAAACAUGCGUACACACACACACAUUUACACA,1.01
CAGACUGACUAACAUGCAUUAGCAAAUGGAGCAUCAGUAGGUAGCAACAUGAUAAUUUAUGUAACUGAUAGCUUCUGUCCUUAUUAGUACACUUAACAUUUGAGACUAGU,1.86
UCAGGGAUUUGUUGGCUAAGGUUUCUCUGUGCAUAUAUAUAUAUAUACAUAUGUAUAUAUAUUUAAAUACACAUAUAUAUUGUACAGAAUAAAAAUGUUUUAUUGAAUAC,1.47
CAGAAUUUGUGCUUUGGUUUGCCCUGCGCAGCCUUGGAGCAUCAUAAGCCUGGCUGGUGGGCAUAGUUAUUCUCAGCAUUGUGGUGGCAAAUGACGUUGGUUCUAGAGAC,3.59
UAACUUUCUAUCCAGAAAAAGAGAUUAUUUGGGACUUGAGAUUUGCAGUGAUACCAACUUAUAGCAAUGAUGUACUUUAAGGGAACUACCCAACUAUGUUGUGAUAGAAG,0.502
GUAAGUCUUGUAAGUCUAAUGUGGCUAUCCUACUCUUUUGGGCAAUGCAUGUAUUAUGCAUUGGAAAGGUAUUUUUUUUAAGUUCUGUUGGCUAGCUAUGGUUUUCAGUA,2.01
UGGACACGUCUCCUCGCAGCUGCCCUAGCAAGGGGAGACAUUGUGGUAGCUAUCAGACAUGGACAGAAACUGACUUAGUGCUCACAAGCCCCUACACCUUCUGGGCUGAA,0.379
CACUGGAAGUCAUAGAAAUUUCCCUGGUCAUGCUUUGUUUGAACUGUCACUGAAUGAACCUUAUCGGGCAUAACUACAUGAAAAUGCAGUGACAGCUGAGUGUGCUGUGU,0.71
CUUAUAGUAAUACAACUUACUAUUCUAGAUUCUUCUUAUCGCUGUGUUUUAUUUGCCAUGUAUCAUCUUUUGUUAUCAAGAGAAGUGUAUGAUGCUUGCUUUAUGCCAUA,0.354
UAGCCUGUGUUUUAAACCAGCCAUGUUUCCUUGUAUAUUUCCCUACCCGCUGCCCCACAUACCCAGCAUGCCGCUGUGGCCACCAUGUCCUCAAAGCCUUCUGUCUGUAU,0.46

# Excerpt of the above (set 6):
Oligonucleotide,RBNS enrichment (R)
CUAUAAUGUACAGUUAUUACAGGGCUUCUGAAGAAGGGGGGGCGGGGAGAAGCUUCUCUGAGGGGCUCGCUCUGCUUUUCCUUCACGGUUUUAUUUUUGAUUGUUUUUUC,0.378
ACUGAGGGCAGGAUGCUCUCCCACCCGGACCCCUCCAGCCAAGCAGCCCUUCAAGUUCUUUUAUUUCUGGGUAACAGAAGUAGACAGACAGGUUACUUGGUGUAUCUUCU,0.183
CCCAGCCUCUGUGACAGUGACCGUCUCCCUUUGUACAUACUUGCACACAGGUUCCCCAUGUACAUACAUGCACAUACUCAAACAUGCGUACACACACACACAUUUACACA,1.01
CAGACUGACUAACAUGCAUUAGCAAAUGGAGCAUCAGUAGGUAGCAACAUGAUAAUUUAUGUAACUGAUAGCUUCUGUCCUUAUUAGUACACUUAACAUUUGAGACUAGU,1.86
UCAGGGAUUUGUUGGCUAAGGUUUCUCUGUGCAUAUAUAUAUAUAUACAUAUGUAUAUAUAUUUAAAUACACAUAUAUAUUGUACAGAAUAAAAAUGUUUUAUUGAAUAC,1.47
CAGAAUUUGUGCUUUGGUUUGCCCUGCGCAGCCUUGGAGCAUCAUAAGCCUGGCUGGUGGGCAUAGUUAUUCUCAGCAUUGUGGUGGCAAAUGACGUUGGUUCUAGAGAC,3.59
UAACUUUCUAUCCAGAAAAAGAGAUUAUUUGGGACUUGAGAUUUGCAGUGAUACCAACUUAUAGCAAUGAUGUACUUUAAGGGAACUACCCAACUAUGUUGUGAUAGAAG,0.502
GUAAGUCUUGUAAGUCUAAUGUGGCUAUCCUACUCUUUUGGGCAAUGCAUGUAUUAUGCAUUGGAAAGGUAUUUUUUUUAAGUUCUGUUGGCUAGCUAUGGUUUUCAGUA,2.01
UGGACACGUCUCCUCGCAGCUGCCCUAGCAAGGGGAGACAUUGUGGUAGCUAUCAGACAUGGACAGAAACUGACUUAGUGCUCACAAGCCCCUACACCUUCUGGGCUGAA,0.379
CACUGGAAGUCAUAGAAAUUUCCCUGGUCAUGCUUUGUUUGAACUGUCACUGAAUGAACCUUAUCGGGCAUAACUACAUGAAAAUGCAGUGACAGCUGAGUGUGCUGUGU,0.71
CUUAUAGUAAUACAACUUACUAUUCUAGAUUCUUCUUAUCGCUGUGUUUUAUUUGCCAUGUAUCAUCUUUUGUUAUCAAGAGAAGUGUAUGAUGCUUGCUUUAUGCCAUA,0.354
UAGCCUGUGUUUUAAACCAGCCAUGUUUCCUUGUAUAUUUCCCUACCCGCUGCCCCACAUACCCAGCAUGCCGCUGUGGCCACCAUGUCCUCAAAGCCUUCUGUCUGUAU,0.46
